Measured values from different studies.
Each line is one published result; not all experiments were run side by side. ± marks the error that the study gave.
IDE: Insulin-degrading enzyme (IDE, Homo sapiens, UniProt P14735)
Cereblon/Ikaros: Cereblon/Ikaros (Homo sapiens, UniProt Q13422+Q96SW2)
USP33 ZnF-UBD domain: Ubiquitin carboxyl-terminal hydrolase 33, ZnF-UBD domain (USP33, Homo sapiens, UniProt Q8TEY7)
UniProt Q8TEY7, sequence (whole entry, looked up): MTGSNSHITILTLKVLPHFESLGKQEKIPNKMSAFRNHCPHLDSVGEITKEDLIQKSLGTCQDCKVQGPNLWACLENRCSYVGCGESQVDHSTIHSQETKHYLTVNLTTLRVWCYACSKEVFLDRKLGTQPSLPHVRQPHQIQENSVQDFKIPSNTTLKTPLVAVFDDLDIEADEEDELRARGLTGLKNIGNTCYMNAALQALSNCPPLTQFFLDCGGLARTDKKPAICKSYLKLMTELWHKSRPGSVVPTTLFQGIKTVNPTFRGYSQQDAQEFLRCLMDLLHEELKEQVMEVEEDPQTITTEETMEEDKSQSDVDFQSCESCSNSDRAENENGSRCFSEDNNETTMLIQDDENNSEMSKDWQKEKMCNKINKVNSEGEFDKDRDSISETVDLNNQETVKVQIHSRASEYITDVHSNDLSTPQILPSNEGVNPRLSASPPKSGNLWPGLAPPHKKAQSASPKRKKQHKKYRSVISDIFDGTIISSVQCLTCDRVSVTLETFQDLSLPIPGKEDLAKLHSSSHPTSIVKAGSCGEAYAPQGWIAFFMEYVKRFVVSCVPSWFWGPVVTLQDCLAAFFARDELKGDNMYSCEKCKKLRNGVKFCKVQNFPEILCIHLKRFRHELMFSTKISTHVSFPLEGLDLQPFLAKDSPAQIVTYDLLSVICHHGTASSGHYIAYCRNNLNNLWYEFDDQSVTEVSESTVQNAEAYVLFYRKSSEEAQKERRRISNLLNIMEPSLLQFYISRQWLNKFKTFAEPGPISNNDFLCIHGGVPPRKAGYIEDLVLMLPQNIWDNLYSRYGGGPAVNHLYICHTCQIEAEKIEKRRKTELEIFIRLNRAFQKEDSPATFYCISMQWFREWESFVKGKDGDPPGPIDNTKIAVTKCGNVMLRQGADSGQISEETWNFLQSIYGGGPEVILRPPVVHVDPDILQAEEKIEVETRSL
UniProt P35414, sequence (whole entry, looked up): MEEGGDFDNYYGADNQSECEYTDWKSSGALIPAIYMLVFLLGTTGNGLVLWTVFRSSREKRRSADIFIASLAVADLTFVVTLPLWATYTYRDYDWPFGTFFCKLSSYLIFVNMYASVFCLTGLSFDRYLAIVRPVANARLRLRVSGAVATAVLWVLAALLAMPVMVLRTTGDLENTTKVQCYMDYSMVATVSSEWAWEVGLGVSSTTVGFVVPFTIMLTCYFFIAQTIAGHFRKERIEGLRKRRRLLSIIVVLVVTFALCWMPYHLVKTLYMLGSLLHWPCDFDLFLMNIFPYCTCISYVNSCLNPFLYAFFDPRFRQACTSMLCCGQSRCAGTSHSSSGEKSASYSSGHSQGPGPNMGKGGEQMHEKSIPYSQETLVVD
UniProt Q9NZQ7, sequence (whole entry, looked up): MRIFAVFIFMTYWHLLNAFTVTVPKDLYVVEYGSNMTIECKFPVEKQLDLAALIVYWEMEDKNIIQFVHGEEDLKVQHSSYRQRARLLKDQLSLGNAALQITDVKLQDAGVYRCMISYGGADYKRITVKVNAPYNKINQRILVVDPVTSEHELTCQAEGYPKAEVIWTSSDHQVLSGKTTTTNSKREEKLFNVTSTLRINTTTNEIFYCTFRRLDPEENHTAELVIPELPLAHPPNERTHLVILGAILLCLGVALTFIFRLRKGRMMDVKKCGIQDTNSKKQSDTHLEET

With `C[C@H]1CCC[C@@H](C(=O)Nc2nnc(S(N)(=O)=O)s2)C1` (racemic) the Ki was 0.131 µM (Enterococcus faecium γ-carbonic anhydrase; CO2 hydration, inhibitor, stopped-flow kinetics).
With `Cc1ccccc1-c1ccc([C@@H]2[C@@H](CO)N3CCCCN(C(=O)CN4CCOCC4)C[C@@H]23)cc1` the EC50 was 6.4 µM (IDE; enzyme activity, inhibitor, fluorogenic kinetic; added: Mca-RPPGFSAFK(Dnp)-OH substrate).
`O=C1CCC(N2C(=O)c3cccc4c(Cc5cnn(C6CCN(C(=O)C7(O)CCC7)CC6)c5)ccc2c34)C(=O)N1` (stereo not drawn) has a DC50 of < 0.05 nM (Cereblon/Ikaros; protein degradation, degrader, immunoblot; human PBMC; 24 h).
With `O=C1CCC(N2C(=O)C=C(Nc3cccc(C(NCCc4ccc(C(F)(F)F)c(Cl)c4)c4ccccc4)c3)C2=O)C(=O)N1` (stereo not drawn) the DC50 was 90 ± 9 nM (Cereblon/Ikaros; degrader, HiBiT luminescence, item: endogenous HiBiT-tagged protein).
`O=C1CCC(N2Cc3cc(Nc4nc5ccccc5o4)ccc3C2=O)C(=O)N1` (stereo not drawn) has a DC50 of > 10000 nM (Cereblon/Ikaros; degrader, live-cell HiBiT kinetic; Jurkat Ikaros-HiBiT LgBiT).
For `O=C(O)CCc1cn2cccnc2n1`, the Kd was > 1000 µM (USP33 ZnF-UBD domain).
The Ki of `CC1(C)CCCCN1CC(=O)Nc1nnc(S(N)(=O)=O)s1` is reported as 0.182 µM (Enterococcus faecium γ-carbonic anhydrase; CO2 hydration, inhibitor, stopped-flow kinetics).
For `CCCNC(=O)N1CC(=O)N2[C@@H](CO)[C@@H](c3ccc(C#Cc4cccc(OC)c4)cc3)[C@@H]2C1`, the EC50 was 11 µM (IDE; enzyme activity, inhibitor, fluorogenic kinetic; added: Mca-RPPGFSAFK(Dnp)-OH substrate).
The DC50 of `CCC(C)(NCCc1ccc(C(F)(F)F)cc1C(F)(F)F)c1cccc(NC2=CC(=O)N(C3CCC(=O)NC3=O)C2=O)c1` (stereo not drawn) is reported as 190 ± 38 nM (Cereblon/Ikaros; degrader, HiBiT luminescence, item: endogenous HiBiT-tagged protein).
For `COc1nc(-c2cccc(-c3ccccc3)c2C)ccc1CNCCNC(=O)CCCCCCCCCCC(=O)N1CCN(CCNC(=O)c2cc3c(=O)n4cccc(C)c4nc3n(CCc3cccs3)c2=N)CC1`, the DC50 was ~1000 nM (CD274 (Homo sapiens, UniProt Q9NZQ7); degrader, western blot; HL-60).
With `CCOCc1nc(O)c(-c2nnc(Cc3ccc(Cl)cn3)o2)c(O)c1-c1c(OC)cccc1OC` the EC50 was 0.00823 ± 0.00048 µM (Apelin receptor (APLNR, Homo sapiens, UniProt P35414); β-arrestin2 recruitment, agonist, BRET; HEK293).
For `O=C(O)CNc1ncnc2ccccc12`, the Kd was > 1000 µM (USP33 ZnF-UBD domain).
For `C=CCN1[C@H](CO)[C@@H](c2ccc(-c3cccc(C)c3C)cc2)[C@@H]1CNS(=O)(=O)c1ccccc1C(F)(F)F`, the EC50 was 0.1 µM (IDE; enzyme activity, inhibitor, fluorogenic peptide cleavage; partial inhibition curves, added: Mca-RPPGFSAFK(Dnp)-OH).
`NS(=O)(=O)c1nnc(NC(=O)C2CCCC3(CCCCC3)O2)s1` (stereo not drawn) has a Ki of 0.311 µM (Enterococcus faecium γ-carbonic anhydrase; CO2 hydration, inhibitor, stopped-flow kinetics).
For `Cc1ccccc1-c1ccc([C@@H]2[C@H](CO)N3CCCCN(C(=O)NC4CCCC4)C[C@@H]23)cc1`, the EC50 was 1.55 µM (IDE; enzyme activity, inhibitor, fluorogenic kinetic; added: Mca-RPPGFSAFK(Dnp)-OH substrate).
`NS(=O)(=O)c1nnc(NC(=O)CC2CC3CCC2C3)s1` (stereo not drawn) has a Ki of 0.241 µM (Enterococcus faecium γ-carbonic anhydrase; CO2 hydration, inhibitor, stopped-flow kinetics).
`Cc1ccccc1-c1ccc([C@H]2[C@H](CO)N3C(=O)CN(C(=O)Cc4ccccn4)C[C@@H]23)cc1` gave an EC50 of 4.4 µM (IDE; enzyme activity, inhibitor, fluorogenic kinetic; added: Mca-RPPGFSAFK(Dnp)-OH substrate).
The Kd of `O=C(O)CCC(=O)c1cccs1` is reported as > 1000 µM (USP33 ZnF-UBD domain).
